# Measurements gathered from unrelated publications.
# Each numbered part is a random draw from the data of one study; scales do not carry over between parts.

# Set 1
# Target: Fragile X messenger ribonucleoprotein 1, C-terminal low-complexity region (Fmr1, Mus musculus, UniProt P35922)
# Method: RNA Bind-n-Seq
# Form: RNA
# Sample: in vitro
# Concentration: 200 nM
# Notes: whole 134-nt RNA, ends assumed
# Together with: 150 mM KCl
# Relative to: input library
# Reading: higher = stronger binding
# Constant ends, left off below: GGGAGUUCUACAGUCCGACGAUC … UGGAAUUCUCGGGUGUCAAGG
Sequence,log2 enrichment
ACCAUGCAGGUGGGCAUCUUUGGGAAGUGGGGCAAGGGGGGGAUAGGGAGGGGGGUAACACUUUGGGAACAGGUGGUCCCACGUCGUUUC,0.757
ACCAUGCACGUGGGCAUCUUUGGGAAGUGGGGCAAGGGGGGGAUAGGGAGGGGGGUAACACUUUGGGAACAGGUGGUCCCAGGUCGUUUC,0.787
CCUGUGCUACACAUCGUAUGUACCGAAUCGGGCCCCCCGGGGCCCCCCGGGCCCCCCGGGGAAAGUAUUAUGUUACGCCGUUCGGAUCUG,-1.05
AGUCCUGUGCUACACAUCGUAUGUACCGAAUCGGGUUUUUGGGAAAGGGAAAAAGGGAAAGUAUUAUGUUACGCCGUUCGGAUCUGCACU,-0.139
UCCUGUGCUACACAUCGUAUGUACCGAAUCGGGGUUUUUUGGUUUUUUGGUUUUUUGGGGAAAGUAUUAUGUUACGCCGUUCGGAUCUGC,-0.175
GCGGACCGAGAAAGUCGUUACGAGGAAGAAGAAGAACAAAGUCGAAGUAUGAGCCGGAAGAGGAAGGCAUCUGUGCACAGUUCGGGCCGU,0.469
AAGUCCUGUGCUACACAUCGUAUGUACCGAAUCGGGAAAAAGGGUGGGAAAAAGGGAAAGUAUUAUGUUACGCCGUUCGGAUCUGCACUU,0.395
CCUCAAGUCCUGUGCUACACAUCGUAUGUACCGAAUCGGUUUGGUUUGGAGGAAAGUAUUAUGUUACGCCGUUCGGAUCUGCACUUCCAG,0.0796
UCCCUGUCCAAGCUGAGCGCCCUCAACGAGAGCCUUGCUCAGGACAAGUUGGAUCUGAACUGCCUUGUCACCCAGGUACACUGUGCACCU,0.652

# Set 2
# Target: Sal-like protein 4, full length isoform A (SALL4, Homo sapiens, UniProt Q9UJQ4, residues 1-1053)
# Sequence of UniProt Q9UJQ4 (whole entry, looked up): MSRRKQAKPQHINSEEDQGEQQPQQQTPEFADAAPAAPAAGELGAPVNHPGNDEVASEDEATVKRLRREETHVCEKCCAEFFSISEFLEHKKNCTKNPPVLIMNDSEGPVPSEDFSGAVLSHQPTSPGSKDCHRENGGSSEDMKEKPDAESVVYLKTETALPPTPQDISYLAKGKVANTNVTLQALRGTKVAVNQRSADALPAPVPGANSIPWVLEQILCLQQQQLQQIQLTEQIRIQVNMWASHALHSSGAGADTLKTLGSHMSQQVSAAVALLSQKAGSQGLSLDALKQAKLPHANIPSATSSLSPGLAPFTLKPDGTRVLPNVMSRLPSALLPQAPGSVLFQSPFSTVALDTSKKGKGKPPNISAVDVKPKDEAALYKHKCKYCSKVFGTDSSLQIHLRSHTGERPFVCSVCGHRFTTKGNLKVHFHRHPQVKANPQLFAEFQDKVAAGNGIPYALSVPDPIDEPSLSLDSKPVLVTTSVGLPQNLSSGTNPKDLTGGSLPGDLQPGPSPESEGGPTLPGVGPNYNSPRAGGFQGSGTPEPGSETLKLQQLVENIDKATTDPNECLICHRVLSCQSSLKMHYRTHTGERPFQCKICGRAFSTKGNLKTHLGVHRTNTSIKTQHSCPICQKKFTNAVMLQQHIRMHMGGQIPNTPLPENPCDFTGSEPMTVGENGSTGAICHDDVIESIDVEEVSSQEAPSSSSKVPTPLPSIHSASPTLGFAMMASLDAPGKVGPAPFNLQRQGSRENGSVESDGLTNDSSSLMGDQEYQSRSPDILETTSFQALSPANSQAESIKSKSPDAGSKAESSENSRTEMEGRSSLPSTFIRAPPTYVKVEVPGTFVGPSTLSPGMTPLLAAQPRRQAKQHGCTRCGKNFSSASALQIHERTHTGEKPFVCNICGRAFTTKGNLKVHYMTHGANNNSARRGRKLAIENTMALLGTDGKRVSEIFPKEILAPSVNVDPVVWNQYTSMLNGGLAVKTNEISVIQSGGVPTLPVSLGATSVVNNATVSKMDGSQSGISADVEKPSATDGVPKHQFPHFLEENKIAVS
# Method: universal PBM
# Form: double-stranded DNA, one strand shown
# Sample: in vitro
# Concentration: 600 nM
# Notes: 8-mer, flanks averaged, mean of replicates
# Reading: higher = stronger binding
Sequence,E-score
CCATCTGA,0.00354
AAGATGGT,0.0591
CTTCGGGC,-0.278
CCACCCCC,-0.303
ATGAAACA,0.261
ACTCTACC,-0.0557
CTGGGGAA,-0.372
CAACCACG,-0.069
ACACAGGA,0.0233
AAACGGAA,0.133
CCTACATA,0.155
ATATCACG,0.228
CCCCAATA,0.13
ACTCTCTG,-0.0191
AACTATCC,-0.0604
ATGTTAGC,0.104
CGGCTGTC,-0.205

# Set 3
# Target: RNA binding protein fox-1 homolog 2, RRM domain, GST-SBP tag (RBFOX2, Homo sapiens, UniProt O43251-10, residues 100-194)
# Method: RNA Bind-n-Seq
# Form: RNA
# Sample: in vitro
# Concentration: 365 nM
# Notes: natural RNA segment, single round, ends assumed
# Relative to: no-protein control
# Reading: higher = stronger binding
# Constant ends, left off below: GGGAGUUCUACAGUCCGACGAUC … UGGAAUUCUCGGGUGCCAA
# Residues (chain): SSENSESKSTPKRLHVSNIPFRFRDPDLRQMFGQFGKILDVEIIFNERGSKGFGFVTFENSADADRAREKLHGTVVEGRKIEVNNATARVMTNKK
Sequence,RBNS enrichment (R)
ACAAGUAUCAGCAAAAGGAUUUGUUUUCACUCUGGGAGGAGAGGGUGGAGAAAGCACUUGCUUUCAUCCUCUGGCAUCGGAAACUCCCCUAUGCACUUGAAGAUGGUUUA,0.712
ACCACUGUACUCCAGCCUGGGCGACAGAGCAAGACUCUGUCUCAAAAAAAGGAAAAAAAAAAAAAGUAAUCUUAGGGUUCAUAGUUAUGAUCCUGUUGUAACUAUCUUCG,0.32
GUGUGCCUCAAAAUUCCGGGAAUGGGCACACAAUUUUUCAGUCCCGUGAUCAGAUCCUGAAUCCCAACCCCCAAGACCUGAGGCCUCUGUCAUCUCCCCAUCCCCAGGCU,0.552
UGGGGAAGAUACCCCUUUUCUGAGGAAUGAGUUUGCCUCCGUCCCCUGCCCAUGCUGGGAGCCCACGCUCACCCCCUCACCCCUCCAAGCUCACUCCCCAACCCCCAACU,0.454
UUCGGAAGGUGUUUCUUGUACCUGAGGGAUCCUGCCCUGAAUCUCCAUAGUCUCCACUGUGAACUGAGGAGGGGAGGGGUGUGCUGGGGAAUAAAUCUUGUAUGAGAACA,0.623
GAAGAGGGGGAGUGAUGGUGCAGCCUACACUAUUCUAGCAGGAGGGUUGGGCGUGCUACCUGCACCGCCCCUUCUCCAACAAGUUGCCUCCAAGCUUUGGGUUGGAGCUG,0.273
GCCUGGGUGAUGCUUUCCUAGGAGAGCCGGUAUUUGCUUGUAAGGGAAAGAAUGGUAUUGUAGAAAAACCCAAGAAAUGACCACGUGGUCAGUUUCAUGGUGAUGGCUAC,0.648
AGAAUAUUGUUCGAAGAAUGUCUGUGAAUGCAGACAUGGGUCCUGCUUAGUGCCAUAGGUAGACUGAGUCUUCUGUAAGUCAUCAUUACAUAGUAAUUUUGGUUCUGAAU,0.249

# Set 4
# Target: Prothrombin, mature alpha-thrombin (F2, Homo sapiens, UniProt P00734)
# Method: aptamer microarray, sandwich
# Form: DNA with 2'F-ANA
# Sample: in vitro
# Concentration: 200 nM
# Notes: whole 15-mer aptamer, many near background
# Together with: Cy3 exosite-II aptamer, 400 nM
# Reading: higher = stronger binding
# Sequence: GGTTGGTGTGGTTGG
Modification,mean fluorescence intensity
2'F-ANA at 1 2 3 6 8 9 10 11 14 15,52.5 a.u.
2'F-ANA at 1 3 5 6 7 8 10 13 15,52.7 a.u.
2'F-ANA at 2 3 4 6 7 8 10 11 13 15,157 a.u.
2'F-ANA at 1 6 7 9 12 14,60.6 a.u.
2'F-ANA at 1 5 7 12 13 14,42.9 a.u.
2'F-ANA at 1 3 7 8 10 13 15,78.5 a.u.
2'F-ANA at 3 4 5 6 10 12 13 14 15,53.3 a.u.
2'F-ANA at 1 3 4 6 8 9 10,129 a.u.
2'F-ANA at 4 8,406 a.u.
2'F-ANA at 2 3 5 6 7 8 13 14,51.3 a.u.
2'F-ANA at 1 2 5 6 7 9 10 12 14 15,50 a.u.
2'F-ANA at 2 3 7 8 9 12 13 14,472 a.u.
2'F-ANA at 1 2 4 6 7 8 9 12 13,180 a.u.
2'F-ANA at 1 2 4 7 8 11 13 14 15,56.2 a.u.
2'F-ANA at 2 5 6 7 9 11 12 14 15,94.5 a.u.
2'F-ANA at 1 5 7 10 11 12,47.9 a.u.
2'F-ANA at 1 3 6 7 9 15,246 a.u.
2'F-ANA at 2 5 6 7 10 12 14,43.9 a.u.
2'F-ANA at 1 2 3 6 8 10 11 14 15,53.5 a.u.
2'F-ANA at 4 6 7 10 13 14 15,57.5 a.u.
2'F-ANA at 2 3 4 7 9 10 11 15,255 a.u.
2'F-ANA at 1 4 6 9 10 11 12 13,50.5 a.u.
2'F-ANA at 2 6 13 14 15,105 a.u.
2'F-ANA at 1 5 6 8 15,61.8 a.u.
2'F-ANA at 2 3 9 10 12 13 14 15,271 a.u.

# Repeated from above (set 1):
Sequence,log2 enrichment
ACCAUGCACGUGGGCAUCUUUGGGAAGUGGGGCAAGGGGGGGAUAGGGAGGGGGGUAACACUUUGGGAACAGGUGGUCCCAGGUCGUUUC,0.787
CCUGUGCUACACAUCGUAUGUACCGAAUCGGGCCCCCCGGGGCCCCCCGGGCCCCCCGGGGAAAGUAUUAUGUUACGCCGUUCGGAUCUG,-1.05
AGUCCUGUGCUACACAUCGUAUGUACCGAAUCGGGUUUUUGGGAAAGGGAAAAAGGGAAAGUAUUAUGUUACGCCGUUCGGAUCUGCACU,-0.139
UCCUGUGCUACACAUCGUAUGUACCGAAUCGGGGUUUUUUGGUUUUUUGGUUUUUUGGGGAAAGUAUUAUGUUACGCCGUUCGGAUCUGC,-0.175
GCGGACCGAGAAAGUCGUUACGAGGAAGAAGAAGAACAAAGUCGAAGUAUGAGCCGGAAGAGGAAGGCAUCUGUGCACAGUUCGGGCCGU,0.469
AAGUCCUGUGCUACACAUCGUAUGUACCGAAUCGGGAAAAAGGGUGGGAAAAAGGGAAAGUAUUAUGUUACGCCGUUCGGAUCUGCACUU,0.395
CCUCAAGUCCUGUGCUACACAUCGUAUGUACCGAAUCGGUUUGGUUUGGAGGAAAGUAUUAUGUUACGCCGUUCGGAUCUGCACUUCCAG,0.0796
UCCCUGUCCAAGCUGAGCGCCCUCAACGAGAGCCUUGCUCAGGACAAGUUGGAUCUGAACUGCCUUGUCACCCAGGUACACUGUGCACCU,0.652
